Measurements of several laboratories.
Parts stem from different laboratories: compare values within a part only.

Block 1
Target: Phosphate system positive regulatory protein PHO4, full length, GST-tagged (PHO4, Saccharomyces cerevisiae, UniProt P07270, residues 1-312)
Method: competition protein-binding microarray
Form: double-stranded DNA, one strand shown
Sample: in vitro
Tested at: 2 µM
Notes: whole 60-bp probe, lowest competitor level
With: Cbf1 competitor, 0.05 µM
Reading: higher = stronger binding
Endpoint: fluorescence intensity
Shared flanks, not repeated: … GTCTTGATTCGCTTGACGCTGCTG
Residues (chain): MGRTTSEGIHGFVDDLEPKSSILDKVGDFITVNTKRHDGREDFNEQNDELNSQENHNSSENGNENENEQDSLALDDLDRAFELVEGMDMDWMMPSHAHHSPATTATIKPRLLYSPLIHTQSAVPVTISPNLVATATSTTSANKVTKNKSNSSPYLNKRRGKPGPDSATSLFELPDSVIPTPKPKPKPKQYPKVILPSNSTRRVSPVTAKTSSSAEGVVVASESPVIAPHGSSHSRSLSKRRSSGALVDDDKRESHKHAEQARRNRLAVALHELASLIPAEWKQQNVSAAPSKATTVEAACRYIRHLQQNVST
ACTATTCGTCCGAGTCACGCATACGTTTGTCAGTGG: 8300 a.u.
AAATTACTAAGTTTTCACGTGAGGTACCCCGTATGA: 9810 a.u.
TTTAAAATGAGTGCGTAACCGTACTTTCCTAAAAAT: 4670 a.u.
CTAACGAAGGTTTCCCACGTGTTTTACAAGCCAAGT: 17800 a.u.
AAATTACTAAGTTGTCACAGCACTTACCCCGTATGA: 3990 a.u.
CTTAAAATGTGTACGATGTGTACACATCAACCTACT: 5320 a.u.
GAACAAGATTTTTTGCACGTGGTGAGGATGATGAGG: 20700 a.u.
AACCGTAACGCTGATAACGTGGATTAGATCTTGGAG: 8410 a.u.
CATACCCAACCTTTTCACGTGAAATAAGATATTTGT: 10500 a.u.
ACATCATTCAAGCTAAGCGTGATGGCAAGGCTGCTG: 6140 a.u.
GCCTACCGGTCCTCGCACGCGGTCTCGCTTTTCTCA: 10300 a.u.
AAATTACTAAGTTGTCACGCTACTTACCCCGTATGA: 6150 a.u.
AAAGCGGTAATTTGATTAGTGGGTGCAGATATCTAT: 4050 a.u.
TTCTAGGTATTGATGCAGGTGAGGAAAAGGAAAAAG: 4120 a.u.
GTCTTGTCTCATTGTCACAGAACTTTCCCCACTTCA: 4480 a.u.
CACAAGACGATTTTGCACGTGGTGAGTTTTGTAAGC: 16800 a.u.
CATGTTTTGCCCGAAATCGTGCCAGTGATAAATCGG: 8870 a.u.

Block 2
Target: RNA binding protein fox-1 homolog 2, RRM domain, GST-SBP tag (RBFOX2, Homo sapiens, UniProt O43251-10, residues 100-194)
Method: RNA Bind-n-Seq
Form: RNA
Sample: in vitro
Tested at: 365 nM
Notes: natural RNA segment, single round, ends assumed
Reference: no-protein control
Reading: higher = stronger binding
Endpoint: RBNS enrichment (R)
Shared flanks, not repeated: GGGAGUUCUACAGUCCGACGAUC … UGGAAUUCUCGGGUGCCAA
Residues (chain): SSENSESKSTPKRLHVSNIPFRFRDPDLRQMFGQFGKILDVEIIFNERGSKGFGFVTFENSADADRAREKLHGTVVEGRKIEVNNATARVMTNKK
AGAACUAGUAGACCCUUUUUCCCAGGCACUGACCCCCCACCUUUGUCUGUGUUGUGCCCAAGUGCCUGCGCCACCCCCACCCUCCUGCUGCGCUGACCGCUGCAUGGUGU: 0.537
UGGGACAGCCCCUUGAAGCAUUCUCCCUCAGUAUUACCUACCCUGUGCCACUGGCCUGACCCUCGAGACAGCUCAAGGAUCCGUGGUGUGGCCACCUGCCAGACCCCCAA: 0.98
CACCAUGUUGGCCAGGCUCGUCUCGAACUCCUGACUUCAGGUGAUCCACCCAUCUCAGCCUCCCAAAGUGCUGGGAUUACAGGCGUGAGCCACCAUGCCCGGCCCAUAAG: 0.213
CCAGACUUGCACUGGGGUAGGAUAUGGAACGAUGGGGAGGUUUUUAAGGGCCGGGGAUGGAUCUUUUCUAAAUGUUAUUACUUGUAAAUAAAGUCUAUUUUUCUCCCUUG: 0.569
UAAUCUUUUAAUGAUAUUUUCUUAUUAUAUUGCUACAGGCAACAUCAGUAGAAGCCUAUCUAGUUACACUAAACUAAAGAUCACAUUCACCAUUCUUACAGCCAAGUGGU: 0.421
UACUAAAGGUUUUACUGUCAUAAUUUAAAGGGGACUCUUCACGACCCGUCACAAUAAACCAUUCUCAAGUUAUCUAUGUGUGUGUGUAUAUAUAUCUCAGGUUUUUAGAC: 0.566
UGUUCCUCCCCUGGCCAGUUAGGGAUGGGAUGUUCUGUGUCUUGUGUGUCCCUCUCCCUAGUCUAAAAAGCAAUUGAAAAGGUCUAUGCAAUAAAGGUUGUUGCUUCCCU: 1.33
UCUUGUUCUCACUGCUGAACUGGUGUUUAAAAUUCUUCGCAGGUCAGAAGUUUGGGAACUCAAAAGUGACAUCAGGAAAGUUAGGAAAAAGUCCACUGUCAACAUUAUCA: 0.697
ACAAAUUAGAGGGAAAUUUGUCCUGUUAACCACAUGCUAUUAUUCCUUCAUUCAGGGUUACUGACCUACUGUCCAGGGCUUGAUAGGUAAGGCAGCUUGUUGGCCCUUGU: 0.527
GGUGGGUGUGCUUUUCAUAGGCUUCCCUUUGCCUUAAACCUGAAGAUGUCUCCUCAAGCCUGUGGGCAGCAUGCCCAGAUUCCCAGACUAAGACACUGUGACAGUUGUCU: 1.79
AGUGUUCCCCUAGAAAGGAAGAGAUUUAAUUGCCAGUUAGAUGUGGCAUGAAAUGAGGGACAAAGAAAGCAUCUCGUAGGUGUGUCUACUGGGUUUUAACUUAUUUUUCU: 0.75
AGAGUCAAGCUAAAGCUACCACCUUGGGGUGAGCCCUACAGAAGGUUCAGACCCGGGCAGCUCAGCUACCUCCUUCUACAUGGAGGUGGCCCUGGUCCCACCUCUAAUCC: 0.23

Block 3
Target: RING finger protein unkempt homolog, zinc fingers 1-6, GST-SBP tag (UNK, Homo sapiens, UniProt Q9C0B0, residues 30-357)
Method: RNA Bind-n-Seq
Form: RNA
Sample: in vitro
Tested at: not given
Notes: RNA with constant flanks, human and mouse sites, ends assumed
Reference: input RNA pool
Reading: higher = stronger binding
Endpoint: bound/input enrichment
Shared flanks, not repeated: GGGAGUUCUACAGUCCGACGAUC … CAACAGAGGAUUGAGCAUCA
Construct (chain): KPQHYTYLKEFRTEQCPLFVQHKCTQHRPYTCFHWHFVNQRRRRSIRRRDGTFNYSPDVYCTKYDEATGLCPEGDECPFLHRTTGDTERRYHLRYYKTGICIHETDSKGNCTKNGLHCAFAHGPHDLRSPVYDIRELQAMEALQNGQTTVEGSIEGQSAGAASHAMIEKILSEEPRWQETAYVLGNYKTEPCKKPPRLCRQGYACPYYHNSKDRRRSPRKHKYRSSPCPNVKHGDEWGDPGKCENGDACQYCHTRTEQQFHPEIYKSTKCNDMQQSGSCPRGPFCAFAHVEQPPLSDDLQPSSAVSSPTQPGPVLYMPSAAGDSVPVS
GCUCCGUGCUCCAUUCUCACUGUACUUGGUAUUAUAUUUUUUAUAAAUAAGAUUUUUAUGUAAAGCUCAGAUUUUGAUUUACAAGGACCUUGCUGCAGUAAAUAUUCCAUCAAUCUUGUG: 0.94 ratio
UAGUAAUGAAACCUGGAGGUCUGGGAAGUUGUGAAUUCCUAAAGUGACACUGUUGAUAAGCUGCUGAUGCCGUUGUCUGGCAGGUGGAAGGUGCAGCGGUCCUGUGAAUAUUCAGGAACU: 0.202 ratio
AGGAAGAGAAAAUGCCUGCUGUUGUAAAUGUCGGAGCCCCUCGUUCUCGGUCCUGCCUGGAACCUUUGUACGCUUUGCUCAAAAAUCAGCGAGCCUUCGCAUUUGAUGCCAAGUUUUUGU: 0.0744 ratio
AAGGCCUCCUCCUCGUCGGCCUCUUCGGCAGGGGCUCUGGAGUCCUCGUUGGAUCGAAAAUUCCAGUCGGUAACCAACACCAUGGAGUCCAUUCAAGGCUUGUCGUCUUGGUGUAUAGAG: 0.135 ratio
GAUGGAAAAAUUUGUUCCUGGAGUUUGGACAUGCUUUCCCAUCCACAGGAUAGCAUGGAGUUGGUUCAUAAACAGUCAAAGGCAGUAGCUGUAACAUCUAUGUCUUUCCCUGUUGGAGAC: 0.136 ratio
AUCACUCUAAUUAAUUGUAAUCUGAAUAAAGUGUAACAAUUGUGUAGCCUUUUUGUAUAAAAUAGACAAAUAGAAAAUGGUCCAAUUAGUUUCCUUUUUAAUAUGCUUAAAAUAAGCAGG: 6.13 ratio
CUCAUGUUUGUGCGUGUGUGUGUGUAUAUUUAUGGGCAUGGGUGCAUGCUUGGUGUGUAUUUGUACAUGUCUGUAUUGCUGUGUCCCUGUAAAUACAUGCUUGUGUAUGGAUGGAAGAGG: 0.205 ratio
UUCCCUCGGUUCCAGUCUUCCCUUUAAAAGCCUGUGGCAUUUUUCCUCCUUCUCCCUAACUUUAGAAAUGUUGUACUUGGCUAUUUUGAUUAGGGAAGAGGGAUGUGGUCUCUGAUCUCU: 0.26 ratio
AUAGUUAUUUAAGGAUUGUUUAUUGAUGAGGUUGGUAAAAUCUAGAAAGGCCAAGGACUUUGUGAAGACUUCAUGUAAGGAAGACUAUAGGUUACCAUUUUAAAAAUAAUGUUCUUGCUU: 2.43 ratio
AGGACAGGGUUAGGAUUGGCAAGGAGAGGGGCAGGAAGGUGGGGGGGGGGGUGGUGGCUCUAGUACCGGGGAGAAUAUUCCACAGAACUGUGACUAUGGCUUGGGGCAGGGGUGGGUGUG: 1.57 ratio
CCAAAGGAUCCGAUUUGCAUAGCGGAGCUCCAGCUGUUGUGGGAAGAGAGGACCAGCCGGCAACUUUUAUCCAGCUCUAAACUUUAUUUCCUCCCAGAAGACACUCCCCAGGGCAGAAAU: 0.403 ratio

Block 4
Target: PABPC1L2, full length, GST fusion (mouse, UniProt A0ABA7IW68)
Method: RNAcompete
Form: RNA
Sample: in vitro
Tested at: 20 nM
Notes: 7-mer, probes averaged, single round
Reference: mean of 7-mers
Reading: higher = stronger binding
Endpoint: 7-mer Z-score
Residues (chain): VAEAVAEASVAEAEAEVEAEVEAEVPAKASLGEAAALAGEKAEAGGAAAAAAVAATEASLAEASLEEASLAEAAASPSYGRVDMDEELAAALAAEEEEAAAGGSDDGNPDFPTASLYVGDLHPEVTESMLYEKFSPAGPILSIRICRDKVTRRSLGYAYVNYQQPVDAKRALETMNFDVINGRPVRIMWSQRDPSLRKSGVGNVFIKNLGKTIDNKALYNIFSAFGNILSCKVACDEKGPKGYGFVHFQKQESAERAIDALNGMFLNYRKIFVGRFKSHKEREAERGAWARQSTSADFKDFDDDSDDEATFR
UGGUUUG: -0.347
GUGCUCG: -0.351
AUCUUGC: -0.286
CUCAAUG: -0.204
GCUCAGC: -0.197
GGCCAAC: 0.129
UUAGACA: -0.0192
AACUCUC: -0.262
AACGUCC: 0.00436
ACUUCGU: -0.306
AGAAGGU: -0.0228
GAAAUCG: 0.28
UGCUCCU: -0.382
UCAGUCG: -0.286
UUCGCUA: -0.315
CAGACUA: -0.115
UAAAGUU: 0.535
GGCUAGG: 0.278
CGCUAUC: -0.206
UUUCCGU: -0.505
AGUCGAA: -0.079
ACCGAUC: -0.119
UAUCUUA: -0.15

Block 5
Target: Interferon regulatory factor 5, full length, phosphomimetic (IRF5, Homo sapiens, UniProt Q13568-2, residues 1-514, S451D/S453D/S456D/S462D)
Method: protein-binding microarray
Form: double-stranded DNA, one strand shown
Sample: in vitro
Tested at: 940 nM top
Notes: 60-bp whole probe
With: salmon DNA 0.4 mg/ml
Reference: random background probes
Reading: higher = stronger binding
Endpoint: fitted relative affinity
Shared flanks, not repeated: GCCTAGCAC … GTCTTGATTCGCTTGACGCTGCTG
TCAGGTTTCCTACTGCTTTAGTGCTAG: 0.582 z-score
TTAGGACTGGGGTATTGGTTAGTGCTA: 0.135 z-score
TCAGGTCTCTTGTTCTCACTGTGCTAG: 1.02 z-score
TTAGATATCAGTCTAGATTAGTGCTAG: -0.0312 z-score
TTATATCTCAGACTGGATTAGTGCTAG: 0.406 z-score
GCATTTTTTTTTTCTACTTCGTGCTAG: 1.85 z-score
TTAGATATCGACTATCGGTTAGTGCTA: 0.597 z-score
GACGAAATGGGGTTTCGAGACGTGCTA: 2.4 z-score
TTAGGTTTCCTTTCCTTTTAGTGCTAG: 2.12 z-score
GACCATATCAGTATCGAGACGTGCTAG: 2.16 z-score
TTAGGTCTCCTTTTCGTTTAGTGCTAG: 0.916 z-score
TTAGGACTGGATTTTCGGTTAGTGCTA: 0.0699 z-score
GAAGGACTGGGTATCGGGACGTGCTAG: 0.473 z-score
GACGATCTCGGGTTTCGAGACGTGCTA: 2.16 z-score
TCAAGTCTGCAACATGGGACTGTGCTA: -0.175 z-score
GACGGTTTCCTTACCCTGACGTGCTAG: 1.26 z-score
GACGGTATCGGTTTCGTGACGTGCTAG: 8.82 z-score
TTAGGTCTCGGACTGGATTAGTGCTAG: 0.976 z-score
TCATCTCTCCCATTCTGACTGTGCTAG: 1.32 z-score
TTAGGTTTCGGTTTCGGTTTGTGCTAG: 17.1 z-score
TTCATTTTCCAAATGCCCTCGTGCTAG: 0.481 z-score
TCATCTTTTCTGTTGTCACTGTGCTAG: 1.95 z-score

For quick reference, copied from above (block 4):
AACUCUC: -0.262
AACGUCC: 0.00436
ACUUCGU: -0.306
AGAAGGU: -0.0228
GAAAUCG: 0.28
UGCUCCU: -0.382
UCAGUCG: -0.286
UUCGCUA: -0.315
CAGACUA: -0.115
